# Assay results pooled from the literature.
# Lines come from different studies, so protocols differ.
SMILES,test,test system,setting,endpoint,value
CC[C@H](C)[C@H](NC(=O)[C@H](CCCCN)NC(=O)[C@@H](NC(=O)[C@H](CS)NC(=O)[C@H](CCCNC(=N)N)NC(=O)[C@H](CCCNC(=N)N)NC(=O)[C@H](CC(N)=O)NC(=O)[C@H](CCCNC(=N)N)NC(=O)[C@H](CS)NC(=O)[C@@H](NC(=O)[C@H](CO)NC(=O)[C@@H](NC(=O)[C@H](CS)NC(=O)[C@H](CCCCN)NC(=O)[C@@H](N)CCCNC(=N)N)[C@@H](C)CC)C(C)C)[C@@H](C)CC)C(=O)N[C@@H](CS)C(=O)N[C@@H](CCCNC(=N)N)C(=O)O,LC-MS,PBS,0.1 mg/mL,single disulfide form,24%
COc1ccc(-n2cc(C(=O)N3C[C@]4(OC(=O)c5ccccc5NC(C)=O)CC[C@H](OC)[C@@]56[C@@H]4C[C@@H]([C@@H]35)[C@@]3(O)C[C@H](OC)[C@H]4C[C@@H]6[C@]3(O)[C@H]4OC)nn2)cc1,,"Sprague-Dawley rat, plasma","intravenous, 2 mg/kg",Vd,22.8 L/kg
CCCCCc1cc(O)c2c(c1)OC(C)(C)[C@@H]1CCC(C)=C[C@@H]21,LC-MS/MS,"male BALB/c mouse, plasma","intraperitoneal, 10 mg/kg, 1 h, added: cis-PET 50 mg/kg and trans-PET 40 mg/kg",plasma concentration,0.47 µM
O=C(NC12CC3CC(CC(C3)C1)C2)c1cc2cc(Cl)ccc2[nH]1,CLND,phosphate-buffered saline,"1 (unit not given), pH 7.4",kinetic solubility,< 1 µM
N[C@]1(c2ccccc2Cl)CCC[C@H](O)C1=O,,"Wistar rat, plasma","20 mg/kg, 72 h",plasma concentration,not detected
Cc1cccc(-c2nc(Nc3ccncn3)c3c(C)csc3n2)n1,CLND,phosphate-buffered saline,"1 (unit not given), pH 7.4",kinetic solubility,23 µM
CN[C@@H]1[C@H](O)[C@H](NC)[C@H]2O[C@]3(O)[C@H](O[C@@H]2[C@H]1O)O[C@H](C)C[C@H]3NC(=O)Cc1cc(Cl)ccn1,,rat plasma,,fraction unbound,0.85
c1cc2c(s1)CCOC21CCN(Cc2ccc3c(c2)OCCO3)CC1,CLND,phosphate-buffered saline,"1 (unit not given), pH 7.4",kinetic solubility,≥ 260 µM
NCc1ccc2[nH]c3c(c2c1)CC1(O)C2Cc4ccc(O)c5c4C1(CCN2CC1CC1)C3O5 (stereo not shown),Irwin observation,naive mice,"intraperitoneal, 10 mg/kg",recovery time,1 h
CN[C@@H]1[C@H](O)[C@H](NC)[C@H]2O[C@]3(O)[C@H](O[C@@H]2[C@H]1O)O[C@H](C)C[C@H]3NC(=O)Cc1ccccn1,,rat plasma,,fraction unbound,0.714
Cc1ccc2nc(C)c(C(=O)NCc3ccc(C(F)(F)F)cc3)n2c1,,dog liver microsomes,,intrinsic clearance,78 mL/min/g protein
Cc1cccc(-c2nc(Nc3ccncn3)c3sccc3n2)n1,CLND,phosphate-buffered saline,"1 (unit not given), pH 7.4",kinetic solubility,277 µM
CN[C@@H]1[C@H](O)[C@H](NC)[C@H]2O[C@]3(O)[C@H](O[C@@H]2[C@H]1O)O[C@H](C)C[C@H]3NC(=O)Cc1ccc(Cl)cn1,,rat plasma,,fraction unbound,0.875

# Repeated from above:
SMILES,test,test system,setting,endpoint,value
CC[C@H](C)[C@H](NC(=O)[C@H](CCCCN)NC(=O)[C@@H](NC(=O)[C@H](CS)NC(=O)[C@H](CCCNC(=N)N)NC(=O)[C@H](CCCNC(=N)N)NC(=O)[C@H](CC(N)=O)NC(=O)[C@H](CCCNC(=N)N)NC(=O)[C@H](CS)NC(=O)[C@@H](NC(=O)[C@H](CO)NC(=O)[C@@H](NC(=O)[C@H](CS)NC(=O)[C@H](CCCCN)NC(=O)[C@@H](N)CCCNC(=N)N)[C@@H](C)CC)C(C)C)[C@@H](C)CC)C(=O)N[C@@H](CS)C(=O)N[C@@H](CCCNC(=N)N)C(=O)O,LC-MS,PBS,0.1 mg/mL,single disulfide form,24%
